Measured values from different studies.
Each line is one published result; not all experiments were run side by side. ± gives the spread as reported.
MAPK8: Mitogen-activated protein kinase 8 (MAPK8, Homo sapiens, UniProt P45983)

Amino acid sequences for entries named in this document (tags omitted). Residues count along the entry.
UniProt P45983, whole entry: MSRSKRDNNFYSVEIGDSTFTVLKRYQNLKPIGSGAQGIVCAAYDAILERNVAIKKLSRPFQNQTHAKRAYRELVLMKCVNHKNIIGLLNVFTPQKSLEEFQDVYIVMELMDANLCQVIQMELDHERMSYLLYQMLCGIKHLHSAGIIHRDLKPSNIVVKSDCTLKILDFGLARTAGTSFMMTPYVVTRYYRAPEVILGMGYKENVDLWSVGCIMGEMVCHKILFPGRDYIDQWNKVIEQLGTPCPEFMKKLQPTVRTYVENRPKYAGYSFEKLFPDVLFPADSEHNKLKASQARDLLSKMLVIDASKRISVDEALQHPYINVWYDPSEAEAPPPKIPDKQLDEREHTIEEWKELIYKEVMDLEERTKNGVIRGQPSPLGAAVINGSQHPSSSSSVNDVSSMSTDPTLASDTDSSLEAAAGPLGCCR
UniProt Q04609, whole entry: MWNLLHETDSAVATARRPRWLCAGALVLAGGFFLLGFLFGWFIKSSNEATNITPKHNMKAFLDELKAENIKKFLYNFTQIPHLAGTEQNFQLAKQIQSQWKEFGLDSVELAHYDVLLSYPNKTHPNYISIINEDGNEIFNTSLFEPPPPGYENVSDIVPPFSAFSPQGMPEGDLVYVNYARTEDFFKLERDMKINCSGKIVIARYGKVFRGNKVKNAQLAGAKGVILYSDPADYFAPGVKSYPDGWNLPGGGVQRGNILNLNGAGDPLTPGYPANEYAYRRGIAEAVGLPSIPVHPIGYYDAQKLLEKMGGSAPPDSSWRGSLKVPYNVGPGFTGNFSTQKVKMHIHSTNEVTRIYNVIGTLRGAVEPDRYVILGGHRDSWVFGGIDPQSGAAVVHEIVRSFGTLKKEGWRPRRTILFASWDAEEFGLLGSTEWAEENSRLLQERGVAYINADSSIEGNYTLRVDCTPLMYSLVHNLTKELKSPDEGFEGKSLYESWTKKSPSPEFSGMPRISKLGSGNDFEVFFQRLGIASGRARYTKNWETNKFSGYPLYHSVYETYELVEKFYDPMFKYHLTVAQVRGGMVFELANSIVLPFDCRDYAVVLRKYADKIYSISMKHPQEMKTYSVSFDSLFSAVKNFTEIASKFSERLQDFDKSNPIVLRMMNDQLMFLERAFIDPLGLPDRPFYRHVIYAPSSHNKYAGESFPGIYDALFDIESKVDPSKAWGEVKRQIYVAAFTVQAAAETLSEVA
UniProt Q01959, whole entry: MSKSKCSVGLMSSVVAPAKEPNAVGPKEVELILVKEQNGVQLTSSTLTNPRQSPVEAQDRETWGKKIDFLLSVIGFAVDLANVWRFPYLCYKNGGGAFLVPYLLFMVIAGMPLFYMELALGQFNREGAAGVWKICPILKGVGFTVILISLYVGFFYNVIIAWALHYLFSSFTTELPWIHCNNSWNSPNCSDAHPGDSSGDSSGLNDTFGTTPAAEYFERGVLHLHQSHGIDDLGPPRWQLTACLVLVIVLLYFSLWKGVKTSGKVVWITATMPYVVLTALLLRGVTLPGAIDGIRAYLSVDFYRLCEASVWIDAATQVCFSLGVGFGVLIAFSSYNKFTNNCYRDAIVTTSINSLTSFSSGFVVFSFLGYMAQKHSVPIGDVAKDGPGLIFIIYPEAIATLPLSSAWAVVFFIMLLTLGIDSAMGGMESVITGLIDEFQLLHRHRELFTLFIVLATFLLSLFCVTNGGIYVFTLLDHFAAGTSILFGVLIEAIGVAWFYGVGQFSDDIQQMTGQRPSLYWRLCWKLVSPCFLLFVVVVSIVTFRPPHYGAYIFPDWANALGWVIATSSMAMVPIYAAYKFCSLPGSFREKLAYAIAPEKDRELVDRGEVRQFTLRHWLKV
UniProt Q9F663, 25-293 limits assumed: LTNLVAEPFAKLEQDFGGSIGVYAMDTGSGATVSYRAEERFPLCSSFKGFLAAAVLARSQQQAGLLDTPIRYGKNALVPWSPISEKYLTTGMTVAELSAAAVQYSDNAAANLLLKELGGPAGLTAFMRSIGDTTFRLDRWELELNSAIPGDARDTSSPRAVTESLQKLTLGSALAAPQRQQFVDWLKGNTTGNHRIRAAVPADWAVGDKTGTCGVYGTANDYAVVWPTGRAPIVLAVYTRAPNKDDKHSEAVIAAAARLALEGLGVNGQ
UniProt P18825, whole entry: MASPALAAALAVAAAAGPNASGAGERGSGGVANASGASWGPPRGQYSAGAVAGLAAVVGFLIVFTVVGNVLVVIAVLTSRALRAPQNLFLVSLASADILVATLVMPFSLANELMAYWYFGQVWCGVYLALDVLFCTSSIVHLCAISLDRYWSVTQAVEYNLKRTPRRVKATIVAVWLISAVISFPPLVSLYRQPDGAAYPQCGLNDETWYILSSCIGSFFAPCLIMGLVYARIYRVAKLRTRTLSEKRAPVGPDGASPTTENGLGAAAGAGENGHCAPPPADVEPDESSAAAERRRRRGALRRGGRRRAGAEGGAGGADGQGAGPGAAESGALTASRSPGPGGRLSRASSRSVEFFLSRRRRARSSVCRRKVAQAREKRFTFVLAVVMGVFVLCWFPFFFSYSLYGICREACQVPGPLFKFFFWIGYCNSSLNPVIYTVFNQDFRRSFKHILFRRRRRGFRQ

SMILES	target or system	assay	system	conditions	endpoint	result
O=C(O)c1cc(C(=O)N[C@@H](Cc2cnc[nH]2)C(=O)O)cc([C@H]2CCN[C@@H]2C(=O)O)c1	NMDA receptor (rat)	binding, radioligand binding	rat cortical synaptosomes	together with: [3H]CGP39653	Ki	5000 nM
COC(=O)[C@@H]1C(c2nc3cncnc3[nH]2)=Cc2cc3c(cc2[C@H]1c1cc(OC)c(OC)c(OC)c1)OCO3	Leishmania infantum		promastigote, iRFP		EC50	> 100000 nM
CC[N+]1=C(C=CC=CC=CC=C2N(CCCCCC(=O)NCCCCC(NC(=O)CCCCCCC(=O)NCCCC[C@H](NC(=O)N[C@@H](CCC(=O)O)C(=O)O)C(=O)O)C(=O)O)c3ccc(S(=O)(=O)O)cc3C2(C)C)C(C)(C)c2cc(S(=O)(=O)[O-])ccc21 (stereo partly shown)	Glutamate carboxypeptidase 2 (FOLH1, Homo sapiens, UniProt Q04609)	enzyme activity, inhibitor		compound in water, together with: [3H]NAAG 30 nM	Ki	0.005 ± 0.0002 nM
CCCSc1nc(N[C@@H]2C[C@H]2c2ccc(F)c(F)c2)c2nnn([C@@H]3C[C@H](O)[C@@H](O)[C@H]3O)c2n1	Sodium-dependent dopamine transporter (SLC6A3, Homo sapiens, UniProt Q01959)	binding	CHO		Ki	800 nM
C#CCCCOC(=O)[C@]1(C)C=C(C(=O)OC(C)(C)C)C(=O)CC1	MAPK8	D-peptide displacement, fluorescence polarization			Ki	1700 ± 400 nM
COC(=O)[C@@H]1C(C=Nc2cc(C)ccc2O)=Cc2cc3c(cc2[C@H]1c1cc(OC)c(OC)c(OC)c1)OCO3	Leishmania infantum		promastigote, iRFP		EC50	41100 ± 2400 nM
N#Cc1ccc(S(=O)(=O)NCc2cn(CB(O)O)nn2)cc1	Carbapenem-hydrolyzing beta-lactamase KPC (KPC-2, Klebsiella pneumoniae, UniProt Q9F663)	inhibitor, competition kinetics		5 min preincubation, together with: nitrocefin 100 µM	Ki	1 ± 0.1 nM
COC(=O)C1(C)C=C(c2ncc(C)o2)C(=O)CC1 (stereo not shown)	MAPK8	D-peptide displacement, fluorescence polarization			Ki	112000 ± 32700 nM
NC(N)=NC(=O)N1CCc2c(F)ccc(-c3c(F)cc(F)cc3F)c2C1	Alpha-2C adrenergic receptor (ADRA2C, Homo sapiens, UniProt P18825)	radioligand binding			Ki	52 nM
O=C(O)c1cc(C(=O)N[C@@H](CS)C(=O)O)cc([C@H]2CCN[C@@H]2C(=O)O)c1	NMDA receptor (rat)	binding, radioligand binding	rat cortical synaptosomes	together with: [3H]CGP39653	Ki	1000 to 5000 nM

A few entries again:
SMILES	target or system	assay	system	conditions	endpoint	result
NC(N)=NC(=O)N1CCc2c(F)ccc(-c3c(F)cc(F)cc3F)c2C1	Alpha-2C adrenergic receptor (ADRA2C, Homo sapiens, UniProt P18825)	radioligand binding			Ki	52 nM
